Assay results of several laboratories.
Protocols differ between the studies behind these lines.

`Cc1nc(C#N)ccc1N` gave an excitation maximum of 276 nm (phosphate buffer with BSA; pH 8, 37 °C, 1% DMSO).
The excitation wavelength of `CC1=CC(C)=[N+]2C1=C(CCCC(=O)NCCCCCC(=O)NCCCC[C@H](NC(=O)N[C@@H](CCC(=O)O)C(=O)O)C(=O)O)c1c(C)cc(C)n1[B-]2(F)F` is reported as 496 nm (acetonitrile/water).
`Nc1nc(-n2nnc3c2CCC2C(CO)C2CC3)nc2c1ncn2C1OC(CO)C(O)C1O` (mixture of isomers) gave an excitation maximum of 270 nm (methanol).
`COC(=O)c1cc(=O)n(C)c2c(-c3ccc(OC)cc3)csc12` has an excitation maximum of 371 nm (dichloromethane; 10 µM).
`COCCOCCOc1ccc([P+](Cc2ccc(C3=C4C(C)=CC(C)=[N+]4[B-](F)(F)n4c(C)cc(C)c43)cc2)(c2ccc(OCCOCCOC)cc2)c2ccc(OCCOCCOC)cc2)cc1` gave an excitation maximum of 497 nm (PBS; 10 µM, pH 7.4, 298 K).
The excitation maximum of `O=c1c(Br)c2oc3c(CN(Cc4ccccn4)Cc4cnccn4)c(O)ccc3nc-2c2ccccc12` is reported as 514 nm (aqueous buffer; pH 7.0, metal-free).
With `CC1=CC(C)=[N+]2C1=C(c1ccc(C[P+](c3ccccc3)(C3CCCCC3)C3CCCCC3)cc1)c1c(C)cc(C)n1[B-]2(F)F` the excitation maximum was 497 nm (PBS; 10 µM, pH 7.4, 298 K).
For `CC1=CC(C)=[N+]2C1=C(CCCC(=O)O)c1c(C)cc(C)n1[B-]2(F)F`, the excitation wavelength was 496 nm (acetonitrile/water).
For `O=c1[nH]c(=O)n(C2OC(CO)C(O)C2O)cc1-n1nnc2c1CCC1C(CO)C1CC2` (mixture of isomers), the excitation maximum was 388 nm (alkaline phosphate buffer).
For `O=c1c(Br)c2oc3c(CN(Cc4ccccn4)Cc4cnccn4)c(O)c(Cl)cc3nc-2c2ccccc12`, the excitation maximum was 550 nm (aqueous buffer; pH 7.0, metal-free).
`NCCC(=O)N1Cc2ccccc2-c2c(nnn2-c2cn(C3OC(CO)C(O)C3O)c(=O)[nH]c2=O)-c2ccccc21` (mixture of isomers) gave an excitation maximum of 312 nm (methanol).
`CC1=CC(C)=[N+]2C1=C(c1ccc(C[P+](c3ccccc3)(c3ccccc3)c3ccccc3)cc1)c1c(C)cc(C)n1[B-]2(F)F` gave an excitation maximum of 497 nm (PBS; 10 µM, pH 7.4, 298 K).
